Experimental data gathered from unrelated publications.
Parts stem from different laboratories: compare values within a part only. Values joined by “and” are separate records of one study, mostly repeats; a detail may differ.

Series 1
Structure (SMILES): Cn1cnc(Cn2ccc3ccc(CNCc4[nH]c5ccccc5c4[C@H]4NC(=O)c5ccc(O)cc54)cc32)c1
Read-out: binding
Action: competitor
Method: NanoBRET
Cell line: HEK293
KRAS G12C: GTPase KRas (KRAS, Homo sapiens, UniProt P01116, G12C)
KRAS: GTPase KRas (KRAS, Homo sapiens, UniProt P01116)
For KRAS G12C; 20 µM, 0.5 h; relative to: vehicle and 20 µM BI compound: normalized BRET read 3.06% and -2.48% and -0.49% and -0.09%.
KRAS; 247 nM — normalized BRET: 79.6% and 101% and 68.9% and 70.5%.
The normalized BRET was 93.7% and 77% and 73% and 94.1% (KRAS; 1.02 nM).
For KRAS; 20 µM: normalized BRET read -2.55e-15% and 0.0219% and -5e-07% and -9.51e-16%.
It gave -0.95% and -0.78% and 0.96% and 0.76% for normalized BRET (KRAS G12C; 20 µM, 3 h; relative to: vehicle and 20 µM BI compound).
It gave 92.1% and 90.7% and 95.5% and 88.9% for normalized BRET (KRAS G12C; 3.05 nM, 1 h; relative to: vehicle and 20 µM BI compound).

Series 2
Compound: c1ccc2c(-c3nn4c(-c5ccncc5)nnc4s3)c[nH]c2c1
Target: 1-phosphatidylinositol 3-phosphate 5-kinase (PIKFYVE, Homo sapiens, UniProt Q9Y2I7)
Chain of UniProt Q9Y2I7 (whole entry, looked up): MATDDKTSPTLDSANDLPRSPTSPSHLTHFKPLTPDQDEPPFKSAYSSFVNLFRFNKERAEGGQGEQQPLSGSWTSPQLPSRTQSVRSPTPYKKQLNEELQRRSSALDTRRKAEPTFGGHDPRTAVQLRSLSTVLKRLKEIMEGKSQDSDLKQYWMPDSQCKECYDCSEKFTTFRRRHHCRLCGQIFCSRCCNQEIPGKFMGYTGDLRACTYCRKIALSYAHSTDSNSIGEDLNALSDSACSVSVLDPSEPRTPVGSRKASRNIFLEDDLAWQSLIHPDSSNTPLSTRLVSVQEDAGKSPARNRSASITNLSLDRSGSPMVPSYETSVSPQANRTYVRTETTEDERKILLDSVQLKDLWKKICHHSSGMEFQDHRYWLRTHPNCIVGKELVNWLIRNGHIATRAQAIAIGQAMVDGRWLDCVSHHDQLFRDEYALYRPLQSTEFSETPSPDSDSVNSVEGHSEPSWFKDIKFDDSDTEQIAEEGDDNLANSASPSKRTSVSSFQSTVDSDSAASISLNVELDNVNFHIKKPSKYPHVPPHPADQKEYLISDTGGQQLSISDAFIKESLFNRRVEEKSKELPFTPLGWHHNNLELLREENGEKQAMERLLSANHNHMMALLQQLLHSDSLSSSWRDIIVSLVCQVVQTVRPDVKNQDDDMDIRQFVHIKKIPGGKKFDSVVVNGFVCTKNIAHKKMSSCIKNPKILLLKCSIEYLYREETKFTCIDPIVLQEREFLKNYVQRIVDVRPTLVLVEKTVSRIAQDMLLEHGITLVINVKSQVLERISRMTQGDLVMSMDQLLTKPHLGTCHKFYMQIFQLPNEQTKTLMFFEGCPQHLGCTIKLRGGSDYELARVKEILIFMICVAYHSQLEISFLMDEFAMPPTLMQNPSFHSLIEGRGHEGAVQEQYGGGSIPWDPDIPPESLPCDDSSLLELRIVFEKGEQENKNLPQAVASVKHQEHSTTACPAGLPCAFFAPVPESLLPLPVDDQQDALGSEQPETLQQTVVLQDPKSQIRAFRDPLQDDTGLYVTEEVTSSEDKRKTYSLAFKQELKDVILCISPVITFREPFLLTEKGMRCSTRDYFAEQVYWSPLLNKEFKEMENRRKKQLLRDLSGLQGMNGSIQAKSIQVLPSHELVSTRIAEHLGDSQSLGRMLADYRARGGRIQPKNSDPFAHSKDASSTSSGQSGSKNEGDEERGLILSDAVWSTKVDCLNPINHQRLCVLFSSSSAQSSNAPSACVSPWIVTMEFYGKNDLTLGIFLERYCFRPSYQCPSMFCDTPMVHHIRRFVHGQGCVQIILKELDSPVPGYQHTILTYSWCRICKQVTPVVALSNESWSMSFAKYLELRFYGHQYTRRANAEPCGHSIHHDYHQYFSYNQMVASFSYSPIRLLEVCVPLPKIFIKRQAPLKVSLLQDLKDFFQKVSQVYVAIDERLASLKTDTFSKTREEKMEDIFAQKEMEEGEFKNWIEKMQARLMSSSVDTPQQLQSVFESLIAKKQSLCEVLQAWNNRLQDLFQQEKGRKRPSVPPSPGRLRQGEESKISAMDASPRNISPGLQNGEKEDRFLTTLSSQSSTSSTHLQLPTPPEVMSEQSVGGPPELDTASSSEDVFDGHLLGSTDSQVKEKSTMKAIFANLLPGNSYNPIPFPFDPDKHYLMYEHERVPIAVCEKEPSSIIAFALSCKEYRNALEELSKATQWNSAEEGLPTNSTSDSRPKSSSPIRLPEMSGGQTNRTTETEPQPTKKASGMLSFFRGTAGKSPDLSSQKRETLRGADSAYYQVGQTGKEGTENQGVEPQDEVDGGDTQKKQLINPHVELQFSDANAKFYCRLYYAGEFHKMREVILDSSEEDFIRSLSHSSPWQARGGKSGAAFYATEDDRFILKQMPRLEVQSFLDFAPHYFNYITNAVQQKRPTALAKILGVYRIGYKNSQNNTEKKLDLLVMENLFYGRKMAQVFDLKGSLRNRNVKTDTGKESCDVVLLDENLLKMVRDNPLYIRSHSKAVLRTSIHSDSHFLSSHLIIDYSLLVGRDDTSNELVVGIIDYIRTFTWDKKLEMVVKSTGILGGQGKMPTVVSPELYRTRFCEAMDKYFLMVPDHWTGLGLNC
Method: KINOMEscan
Notes: unit not given
Relative to: DMSO
It gave 0.00439 and 0.00484 for remaining binding (4.53 nM).
It gave 0.0732 and 0.0743 for remaining binding (0.508 nM).
370 nM — remaining binding: 0.00191 and 0.00239.
For 13.6 nM: remaining binding read 0.0028 and 0.00137.
For 10000 nM: remaining binding read 0.00229 and 0.00156.
For 3300 nM: remaining binding read 0.00253 and 0.00145.
For 123 nM: remaining binding read 0.0033 and 0.00237.
The remaining binding was 0.00522 and 0.00521 (4.57 nM).

Single results of other studies
Dose: dose not given
`COc1cc(C(=O)OCCCN2CCCN(CCCOC(=O)c3cc(OC)c(OC)c(OC)c3)CC2)cc(OC)c1OC` gave a tissue concentration of 20.2 ng/mL (male CD-1 mouse, trigeminal ganglion; subcutaneous, 4.5 h).
For `CC(C)n1cnc(-c2ccc(F)cc2)c1-c1ncc(C(=O)Nc2ccc(N3CCN(C)CC3)cc2)[nH]1`, “patients with Gingivitis TEAE” read 0% (phase 2a clinical trial; patients with idiopathic pulmonary fibrosis; all compound arms pooled).

For quick reference, copied from above (series 1):
For KRAS; 20 µM: normalized BRET read -2.55e-15% and 0.0219% and -5e-07% and -9.51e-16%.
The normalized BRET was 93.7% and 77% and 73% and 94.1% (KRAS; 1.02 nM).
